Measurements pooled from the literature.
Each line is one published result; not all experiments were run side by side. ± marks the error that the study gave.
sspA: Glutamyl endopeptidase (sspA, Staphylococcus aureus, UniProt P0C1U8)
UniProt P0C1U8, sequence (whole entry, looked up): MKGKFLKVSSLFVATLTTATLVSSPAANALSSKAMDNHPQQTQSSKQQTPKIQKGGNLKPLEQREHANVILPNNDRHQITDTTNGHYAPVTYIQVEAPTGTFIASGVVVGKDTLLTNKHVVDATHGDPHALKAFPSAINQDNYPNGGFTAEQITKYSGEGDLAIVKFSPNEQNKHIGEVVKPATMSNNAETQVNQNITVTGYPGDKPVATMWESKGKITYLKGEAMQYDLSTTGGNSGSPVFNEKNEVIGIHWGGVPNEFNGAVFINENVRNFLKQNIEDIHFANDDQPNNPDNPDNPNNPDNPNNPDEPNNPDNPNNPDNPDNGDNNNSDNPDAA
CYP2C8: Cytochrome P450 2C8 (CYP2C8, Homo sapiens, UniProt P10632)
UniProt P10632, sequence (whole entry, looked up): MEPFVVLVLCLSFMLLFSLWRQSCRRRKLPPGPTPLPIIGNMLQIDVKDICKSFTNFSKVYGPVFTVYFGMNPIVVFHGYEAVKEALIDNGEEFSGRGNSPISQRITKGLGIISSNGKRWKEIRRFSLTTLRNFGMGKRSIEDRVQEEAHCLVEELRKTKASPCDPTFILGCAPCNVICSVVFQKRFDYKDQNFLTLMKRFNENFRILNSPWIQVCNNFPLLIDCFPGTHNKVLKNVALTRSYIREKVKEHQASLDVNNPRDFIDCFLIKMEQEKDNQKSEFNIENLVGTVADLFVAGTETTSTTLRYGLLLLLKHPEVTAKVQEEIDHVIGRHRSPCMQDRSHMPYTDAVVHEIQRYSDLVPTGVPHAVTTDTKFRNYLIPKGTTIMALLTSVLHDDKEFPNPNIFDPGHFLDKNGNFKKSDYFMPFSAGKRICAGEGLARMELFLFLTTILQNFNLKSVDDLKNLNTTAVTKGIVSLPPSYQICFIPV
CYP2C9: Cytochrome P450 2C9 (CYP2C9, Homo sapiens, UniProt P11712)
UniProt P11712, sequence (whole entry, looked up): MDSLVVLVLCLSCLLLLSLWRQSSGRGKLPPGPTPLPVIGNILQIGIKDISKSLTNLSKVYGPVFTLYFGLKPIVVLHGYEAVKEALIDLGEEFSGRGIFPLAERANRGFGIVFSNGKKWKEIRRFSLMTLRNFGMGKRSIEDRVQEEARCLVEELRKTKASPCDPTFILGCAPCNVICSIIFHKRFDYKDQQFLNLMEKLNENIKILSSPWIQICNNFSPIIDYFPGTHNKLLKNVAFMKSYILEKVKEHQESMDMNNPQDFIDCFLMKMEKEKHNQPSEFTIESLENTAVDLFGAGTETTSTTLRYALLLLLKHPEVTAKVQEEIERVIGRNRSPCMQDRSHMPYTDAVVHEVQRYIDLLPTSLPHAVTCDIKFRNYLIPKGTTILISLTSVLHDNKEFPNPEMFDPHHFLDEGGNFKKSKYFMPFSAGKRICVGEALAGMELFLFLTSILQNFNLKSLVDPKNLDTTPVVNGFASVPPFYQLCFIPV
UniProt P08183, sequence (whole entry, looked up): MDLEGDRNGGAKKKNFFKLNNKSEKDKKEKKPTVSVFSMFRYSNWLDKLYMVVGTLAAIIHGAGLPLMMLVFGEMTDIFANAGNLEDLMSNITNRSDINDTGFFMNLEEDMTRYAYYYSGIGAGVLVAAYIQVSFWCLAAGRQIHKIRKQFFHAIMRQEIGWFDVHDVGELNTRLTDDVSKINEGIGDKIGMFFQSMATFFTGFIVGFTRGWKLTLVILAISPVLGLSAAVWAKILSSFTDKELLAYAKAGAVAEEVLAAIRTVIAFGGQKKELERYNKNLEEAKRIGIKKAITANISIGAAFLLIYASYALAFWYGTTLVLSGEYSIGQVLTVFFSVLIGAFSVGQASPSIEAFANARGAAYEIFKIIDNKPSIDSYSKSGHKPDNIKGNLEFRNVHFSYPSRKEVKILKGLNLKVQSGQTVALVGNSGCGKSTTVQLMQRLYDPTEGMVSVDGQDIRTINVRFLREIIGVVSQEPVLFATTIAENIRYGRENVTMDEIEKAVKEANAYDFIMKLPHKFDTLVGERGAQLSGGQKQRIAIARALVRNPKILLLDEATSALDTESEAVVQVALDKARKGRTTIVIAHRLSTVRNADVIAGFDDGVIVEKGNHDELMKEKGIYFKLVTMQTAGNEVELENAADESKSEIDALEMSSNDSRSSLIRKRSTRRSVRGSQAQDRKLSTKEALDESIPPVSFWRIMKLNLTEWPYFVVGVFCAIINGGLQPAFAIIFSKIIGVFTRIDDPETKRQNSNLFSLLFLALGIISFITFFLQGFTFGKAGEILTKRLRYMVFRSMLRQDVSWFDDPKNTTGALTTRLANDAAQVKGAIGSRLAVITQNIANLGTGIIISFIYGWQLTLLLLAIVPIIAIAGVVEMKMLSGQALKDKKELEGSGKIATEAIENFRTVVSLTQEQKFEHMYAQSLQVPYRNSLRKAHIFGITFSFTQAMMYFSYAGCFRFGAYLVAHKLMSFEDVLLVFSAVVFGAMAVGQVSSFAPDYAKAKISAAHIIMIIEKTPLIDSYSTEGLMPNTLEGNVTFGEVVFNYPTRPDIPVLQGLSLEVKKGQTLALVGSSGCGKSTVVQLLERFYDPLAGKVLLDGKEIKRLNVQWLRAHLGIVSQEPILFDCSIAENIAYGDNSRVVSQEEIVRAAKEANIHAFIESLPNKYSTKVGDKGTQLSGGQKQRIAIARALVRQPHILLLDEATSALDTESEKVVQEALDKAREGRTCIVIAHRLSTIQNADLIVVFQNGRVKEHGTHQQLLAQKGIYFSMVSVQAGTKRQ
UniProt Q06520, sequence (whole entry, looked up): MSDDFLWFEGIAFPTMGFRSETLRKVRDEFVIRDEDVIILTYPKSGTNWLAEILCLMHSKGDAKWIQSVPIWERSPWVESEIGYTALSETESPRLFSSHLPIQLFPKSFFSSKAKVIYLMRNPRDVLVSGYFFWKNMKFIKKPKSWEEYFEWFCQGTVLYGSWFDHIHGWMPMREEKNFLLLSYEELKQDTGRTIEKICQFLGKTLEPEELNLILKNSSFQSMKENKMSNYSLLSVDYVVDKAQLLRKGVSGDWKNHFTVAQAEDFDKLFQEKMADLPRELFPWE
UniProt P33261, sequence (whole entry, looked up): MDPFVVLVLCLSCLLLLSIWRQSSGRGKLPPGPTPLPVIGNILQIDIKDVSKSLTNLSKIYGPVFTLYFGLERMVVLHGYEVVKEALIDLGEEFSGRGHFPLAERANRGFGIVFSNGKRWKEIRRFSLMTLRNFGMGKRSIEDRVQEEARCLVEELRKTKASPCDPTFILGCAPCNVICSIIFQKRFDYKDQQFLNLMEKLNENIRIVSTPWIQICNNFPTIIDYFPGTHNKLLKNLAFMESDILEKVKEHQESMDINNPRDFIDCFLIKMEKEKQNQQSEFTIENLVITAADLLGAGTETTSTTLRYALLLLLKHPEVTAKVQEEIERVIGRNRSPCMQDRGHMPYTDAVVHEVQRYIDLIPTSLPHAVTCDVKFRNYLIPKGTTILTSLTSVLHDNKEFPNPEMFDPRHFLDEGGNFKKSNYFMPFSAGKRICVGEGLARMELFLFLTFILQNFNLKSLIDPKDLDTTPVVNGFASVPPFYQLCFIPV
UniProt P33527, sequence (whole entry, looked up): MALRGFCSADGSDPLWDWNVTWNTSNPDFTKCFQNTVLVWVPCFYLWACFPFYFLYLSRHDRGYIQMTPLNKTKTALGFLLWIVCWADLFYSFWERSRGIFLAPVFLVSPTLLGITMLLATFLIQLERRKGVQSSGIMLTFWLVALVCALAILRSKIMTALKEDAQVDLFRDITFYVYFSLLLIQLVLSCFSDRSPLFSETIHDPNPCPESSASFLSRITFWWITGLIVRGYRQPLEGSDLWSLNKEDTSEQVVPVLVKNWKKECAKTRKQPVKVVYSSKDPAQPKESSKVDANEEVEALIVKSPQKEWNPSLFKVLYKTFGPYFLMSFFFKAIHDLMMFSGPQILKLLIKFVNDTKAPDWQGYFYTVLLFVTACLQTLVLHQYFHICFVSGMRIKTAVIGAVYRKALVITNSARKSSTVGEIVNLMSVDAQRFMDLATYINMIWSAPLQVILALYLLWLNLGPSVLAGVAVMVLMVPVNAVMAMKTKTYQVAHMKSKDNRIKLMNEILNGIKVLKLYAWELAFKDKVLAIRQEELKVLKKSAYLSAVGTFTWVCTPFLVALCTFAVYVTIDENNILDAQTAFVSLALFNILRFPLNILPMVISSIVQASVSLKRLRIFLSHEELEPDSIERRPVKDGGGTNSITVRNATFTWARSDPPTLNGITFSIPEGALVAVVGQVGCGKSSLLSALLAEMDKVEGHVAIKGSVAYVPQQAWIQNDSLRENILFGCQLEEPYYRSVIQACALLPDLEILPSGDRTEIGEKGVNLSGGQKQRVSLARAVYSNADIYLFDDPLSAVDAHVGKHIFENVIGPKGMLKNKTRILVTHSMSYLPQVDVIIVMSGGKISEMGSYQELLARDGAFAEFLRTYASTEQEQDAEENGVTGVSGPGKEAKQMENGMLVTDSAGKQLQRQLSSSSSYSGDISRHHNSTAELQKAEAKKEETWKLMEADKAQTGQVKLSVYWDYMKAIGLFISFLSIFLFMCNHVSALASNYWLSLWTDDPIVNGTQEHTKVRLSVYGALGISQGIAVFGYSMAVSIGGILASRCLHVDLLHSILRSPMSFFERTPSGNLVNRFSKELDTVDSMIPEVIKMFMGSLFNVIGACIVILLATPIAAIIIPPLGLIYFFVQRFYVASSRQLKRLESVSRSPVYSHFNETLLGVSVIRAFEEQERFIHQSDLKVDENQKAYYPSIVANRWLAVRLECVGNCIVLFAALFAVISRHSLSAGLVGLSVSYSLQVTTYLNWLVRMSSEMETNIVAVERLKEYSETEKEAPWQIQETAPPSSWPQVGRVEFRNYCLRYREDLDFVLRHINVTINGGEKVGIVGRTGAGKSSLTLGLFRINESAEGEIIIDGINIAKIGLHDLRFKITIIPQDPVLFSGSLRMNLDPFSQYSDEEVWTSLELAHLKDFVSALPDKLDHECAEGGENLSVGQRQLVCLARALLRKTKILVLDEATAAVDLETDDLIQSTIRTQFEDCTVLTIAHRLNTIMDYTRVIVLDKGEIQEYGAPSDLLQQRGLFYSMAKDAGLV

SMILES = [64Cu+2].c1ccc(CNCc2ccc(CN3CCCNCCNCCCNCC3)cc2)nc1; target = CXCR4; test system = NOD/SCID mouse, U87 and U87-stb-CXCR4 xenografts, blood; conditions = iv, 90 min, no blocking dose, ex vivo; measurement = tissue uptake; result = 0.83 ± 0.24 %ID/g
SMILES = O=C(CN1CCN(c2cc3c(cc2F)c(=O)c(C(=O)O)cn3C2CC2)CC1)Nc1ccc(Cl)cc1; target = ABCB1 (Homo sapiens, UniProt P08183); test = inhibitor, refers to: Oregon Green paclitaxel; test system = LLC-PK1 overexpressing ABCB1; conditions = 4 µM, added: Oregon Green paclitaxel 400 nM; measurement = intracellular accumulation; result = increased
SMILES = CN1C(=O)[C@@H](Cc2ccc(O)cc2)NC(=O)CNC(=O)[C@H](Cc2ccc3ccccc3c2)NC(=O)[C@H](CCCNC(=N)N)NC(=O)[C@H]1CCCNC(=O)c1ccc(CNC(=O)CN2CCN(CC(=O)O)CCN(CC(=O)O)CCN(CC(=O)O)CC2)cc1 [gallium-68 labelled]; target = CXCR4 (Homo sapiens, UniProt P61073); test = PET imaging; test system = human, lung; measurement = SUVmean; result = 0.75
SMILES = C=CCc1ccc(O)c(-c2cc(CC=C)cc(O)c2O)c1; target = ABCC1 (Homo sapiens, UniProt P33527); test = calcein-AM efflux; conditions = 10 µM; scale = baseline: verapamil 30 µM; measurement = inhibition; result = 3.3 ± 2.8%
SMILES = CC(C)C[C@H](NC(=O)[C@H](CCCCN)NC(=O)[C@H](CCCNC(=N)N)NC(=O)[C@@H](CC(C)C)NC(=O)[C@H](Cc1ccc(C(C)(C)C)cc1)NC(=O)[C@H](CC(=O)O)NC(=O)[C@H](CCCCN)NC(=O)[C@@H](CC(C)C)NC(=O)[C@H](CCCNC(=N)N)NC(=O)[C@H](CCC(N)=O)NC(=O)[C@@H](NC(=O)[C@@H](CC(C)C)NC(=O)[C@H](CCCNC(=N)N)NC(=O)[C@H](CCCCN)NC(=O)[C@H](Cc1ccc(C(C)(C)C)cc1)NC(=O)CN)C(C)C)C(=O)N[C@H](C(N)=O)C(C)C; target = sspA; test = substrate, SDS-PAGE; conditions = 24 h, pH 7.4, 37 °C; measurement = proteolytic stability; result = stable
SMILES = Cc1ccc2nc(C)c(C(=O)NCc3ccc(C(F)(F)F)cc3)n2c1; target = CYP2C8; test = inhibitor; measurement = IC50; result = > 20 µM
SMILES = CC(C)(O)c1ccccc1CC[C@H](c1cccc(/C=C/c2ccc3ccc(Cl)cc3n2)c1)S(=O)(=O)CC1(CC(=O)O)CC1; target = CYP2C9; test = inhibitor; test system = human liver microsomes; conditions = 2 µM, pH 7.4, added: diclofenac; measurement = inhibition; result = 44.5%
SMILES = [11CH3]Oc1ccc(Cc2ccncc2)nc1-c1cccc([N+](=O)[O-])c1; target = PDE4D; test system = rhesus monkey; conditions = dose not given, added: rolipram 1.0 mg/kg i.v. preblock; measurement = time to peak brain radioactivity; result = 2.25 min
SMILES = C=CC(=O)Nc1cc(Nc2nccc(-c3cn(C)c4ccccc34)n2)c(OCC(F)(F)F)nc1N(C)CCN(C)C; target = CYP2C8; test = enzyme activity, inhibitor; test system = human, liver microsomes; conditions = 1 µM; measurement = activity vs control; result = 101%
SMILES = CC[C@H](C)[C@H](NC(=O)[C@H](CCCCN)NC(=O)[C@H](CCC(=O)O)NC(=O)CNC(=O)CNC(=O)[C@H](CCCCN)NC(=O)[C@H](CCCNC(=N)N)NC(=O)[C@H](CC(C)C)NC(=O)[C@H](CC(C)C)NC(=O)CN)C(=O)NCC(=O)N[C@@H](CCC(=O)O)C(=O)N[C@@H](CCCCN)C(=O)N[C@@H](CC(C)C)C(=O)N[C@@H](CCCCN)C(=O)N[C@@H](CCCCN)C(=O)N[C@H](C(=O)NCC(=O)N[C@@H](CCC(N)=O)C(=O)N[C@@H](CCCCN)C(=O)N[C@H](C(=O)N[C@@H](CCCCN)C(=O)N[C@@H](CC(N)=O)C(=O)N[C@@H](Cc1ccccc1)C(=O)N[C@@H](Cc1ccccc1)C(=O)N[C@@H](CCC(N)=O)C(=O)N[C@@H](CCCCN)C(=O)N[C@@H](CC(C)C)C(=O)N[C@H](C(=O)N1CCC[C@H]1C(=O)N[C@@H](CCC(N)=O)C(=O)N1CCC[C@H]1C(=O)N[C@@H](CCC(=O)O)C(=O)N[C@@H](CCC(N)=O)C(=O)O)C(C)C)[C@@H](C)CC)[C@@H](C)CC; target = Escherichia coli OmpT; test = substrate; test system = E. coli BL21 expressing ompT, PBS; conditions = 2 µg/µL, room temperature; measurement = time to cleavage; result = ≤ 15 min
SMILES = CCn1c(-c2ccc(OC)cc2)c(-c2ccc(OC)cc2)n(CC)c1=[Se+][Au-][P+](CC)(CC)CC.Cl; target = Txnrd1 (Rattus norvegicus, UniProt O89049); test = enzyme activity, inhibitor; measurement = IC50; result = 0.0147 µM
SMILES = CC[C@@H]1CN2CCc3c([nH]c4cccc(OC)c34)[C@@H]2C[C@@H]1/C(=C\OC)C(=O)OC; target = CYP2C19 (Homo sapiens, UniProt P33261); test = substrate; test system = recombinant human enzyme; conditions = 2 µM, 60 min, pH 7.4; measurement = remaining substrate; result = 77%
SMILES = CNC(=O)Oc1cc(C)c(S(C)(=O)=O)c(C)c1; target = CYP2C8; test system = human liver microsomes; conditions = 2 µM, pH 7.4, added: paclitaxel; measurement = inhibition; result = < 0%
SMILES = C[C@]12CC[C@H](O)CC1CCC1C2[C@H](O)C(=O)[C@]2(C)[C@@H](c3ccc(=O)oc3)CC[C@]12O (stereo partly shown); target = SULT2A1 (Homo sapiens, UniProt Q06520); test = substrate; test system = human brain cytosol; conditions = pH 7.4; measurement = sulfation rate; result = 0.023 pmol/min/mg protein
SMILES = CCCS(=O)(=O)c1ccc2[nH]c(NC(=O)OC)nc2c1; target = CYP2C8; test system = human liver microsomes; conditions = 10 µM, pH 7.4, added: paclitaxel; measurement = inhibition; result = < 0%
SMILES = CCCCCC1=C(NCC)C(=O)C(C/C=C(\C)CCC=C(C)C)=C(O)C1=O; target = human SLC transporters; test = transporter uptake; conditions = concentration not given; measurement = inhibition; result = no inhibition
SMILES = O=C1Cc2cc(CCN3CCN(C4=NS(=O)(=O)c5ccccc54)CC3)c(Cl)cc2N1; target = CYP2C8; test system = human liver microsomes; conditions = 10 µM, pH 7.4, added: paclitaxel; measurement = inhibition; result = < 0%
SMILES = CCN(CC)CCOc1ccc(-c2nnn(Cc3ccc(OC)cc3)c2N)cc1; target = SLC47A2 (Homo sapiens, UniProt Q86VL8); test = transporter uptake, inhibitor; measurement = IC50; result = 1.25 µM
SMILES = CNC(=O)Oc1cc(C)c([S+](C)[O-])c(C)c1 (stereo not shown); target = CYP2C9; test = inhibitor; test system = human liver microsomes; conditions = 2 µM, pH 7.4, added: diclofenac; measurement = inhibition; result = < 0%
SMILES = N=C(N)NCCC[C@@H](NC(=O)[C@H](N)Cc1c[nH]c2ccccc12)C(=O)N[C@H](CCCCN)C(=O)N[C@H](Cc1c[nH]c2ccccc12)C(=O)N[C@H](CCCNC(=N)N)C(=O)N[C@H](CCCCN)C(=O)N[C@H](Cc1c[nH]c2ccccc12)C(=O)N[C@H](CCCNC(=N)N)C(=O)N[C@H](CCCCN)C(=O)N[C@H](Cc1c[nH]c2ccccc12)C(=O)N[C@H](CCCNC(=N)N)C(=O)N[C@H](CCCCN)C(N)=O; target = pepsin; test = RP-HPLC; conditions = 6 h, 37 °C; measurement = remaining peptide; result = > 90%
SMILES = CC(C)(O)c1ccccc1CC[C@H](c1cccc(/C=C/c2ccc3ccc(Cl)cc3n2)c1)[S+]([O-])CC1(CC(=O)O)CC1 (stereo partly shown); target = CYP2C9; test = inhibitor; test system = human liver microsomes; conditions = 2 µM, pH 7.4, added: diclofenac; measurement = inhibition; result = 33.1%
SMILES = CC(C)C[C@H](NC(=O)[C@H](CC(N)=O)NC(=O)[C@H](CCCNC(=N)N)NC(=O)[C@@H](CC(C)C)NC(=O)[C@H](Cc1ccc(-c2ccccc2)cc1)NC(=O)[C@H](CC(=O)O)NC(=O)[C@H](CCCCN)NC(=O)[C@@H](CC(C)C)NC(=O)[C@H](CCCNC(=N)N)NC(=O)[C@H](CCC(N)=O)NC(=O)[C@@H](NC(=O)[C@@H](CC(C)C)NC(=O)[C@H](CCCNC(=N)N)NC(=O)[C@H](CCCCN)NC(=O)[C@H](Cc1ccc(-c2ccccc2)cc1)NC(=O)CN)C(C)C)C(=O)N[C@H](C(N)=O)C(C)C; target = sspA; test = substrate, tricine SDS-PAGE; conditions = pH 8, 37 °C, added: peptide:protease 40:1; measurement = stability time; result = ≥ 24 h

Excerpt of the above:
SMILES = CC(C)(O)c1ccccc1CC[C@H](c1cccc(/C=C/c2ccc3ccc(Cl)cc3n2)c1)[S+]([O-])CC1(CC(=O)O)CC1 (stereo partly shown); target = CYP2C9; test = inhibitor; test system = human liver microsomes; conditions = 2 µM, pH 7.4, added: diclofenac; measurement = inhibition; result = 33.1%
SMILES = C[C@]12CC[C@H](O)CC1CCC1C2[C@H](O)C(=O)[C@]2(C)[C@@H](c3ccc(=O)oc3)CC[C@]12O (stereo partly shown); target = SULT2A1 (Homo sapiens, UniProt Q06520); test = substrate; test system = human brain cytosol; conditions = pH 7.4; measurement = sulfation rate; result = 0.023 pmol/min/mg protein
